Assay results pooled from the literature.
Several values in a cell are separate wells, animals, samples, runs or records. ± gives the spread as reported. ≈ marks a conversion by molar mass, not a printed value.

| Structure (SMILES) | target or system | assay | system | setting | scale | measurement | result |
| --- | --- | --- | --- | --- | --- | --- | --- |
| CN(C)S(=O)(=O)c1ccccc1-c1ccc2ncnc(Nc3ccc(OCc4cccc(F)c4)c(Cl)c3)c2c1 | Plasmodium falciparum | parasite growth, SYBR Green fluorescence | C235 (TM91C235), drug-resistant |  |  | EC50 | 1100 nM |
| CC(=O)c1c(O)c(C)c(O)c2c1OC1=CC(=O)C(=C(C)NCCCC(=O)OC3OC4OC5(C)CCC6C(C)CCC(C3C)C46OO5)C(=O)C12C (centres unmarked) | Plasmodium berghei |  | ANKA GFP, NMRI mouse | oral, 4 x 3 mg/kg, day 4 post infection |  | parasitaemia inhibition | 81.9% |
| CC1(C)Cc2sc(NC(=O)Cc3ccc(S(N)(=O)=O)cc3)c(C#N)c2CN1CC1CCCCC1 | Dengue virus 2 | viral replication | P15-S11 passaged with DMSO |  |  | EC50 | 15.3 nM and 13 nM |
| CC[C@H](C)CCCCC(=O)N[C@@H](CCN)C(=O)N[C@H](C(=O)N[C@@H](CCN)C(=O)N[C@H]1CCNC(=O)[C@H]([C@@H](C)O)NC(=O)[C@H](CCN)NC(=O)[C@H](CCN)NC(=O)[C@H](CC(C)C)NC(=O)[C@@H](CC(C)C)NC(=O)[C@H](CCN)NC1=O)[C@@H](C)O | Escherichia coli | daily serial passaging | ATCC 8739 | highest sub-MIC, 35 days | baseline: initial MIC | MIC fold change | 1.95 |
| CC(C)[C@H]1NC(=O)[C@H](Cc2ccccc2)NC(=O)[C@@H](C(C)C)NC(=O)[C@@H](C)NC(=O)[C@H](CO)NC(=O)[C@@H](Cc2c(-c3ccc(C4CCCCC4)cc3)[nH]c3ccccc23)NC(=O)[C@@H](CO)NC1=O | Candida albicans | broth dilution |  |  |  | MIC90 | > 50 µM |
| CCCCCCCC(=O)NCCCC[C@H](NC(=O)CCCCCCC)C(=O)N[C@@H](CCCCNC(=O)CCCCCCC)C(=O)NCC(=O)NCC(=O)NCC(=O)N[C@@H](CS)C(=O)N[C@@H](CCCNC(=N)N)C(=O)N[C@@H](CCCCN)C(=O)N1CCC[C@H]1C(=O)N[C@@H](CS)C(=O)N[C@@H](CCCNC(=N)N)C(=O)N[C@@H](CCCCN)C(=O)N1CCC[C@H]1C(=O)N[C@@H](CS)C(=O)N[C@@H](CCCNC(=N)N)C(=O)N[C@@H](CCCCN)C(=O)N1CCC[C@H]1C(N)=O | Candida albicans | broth microdilution | 14936, RPMI-1640 | 48 h, 30 °C |  | MIC | 8 µM (≈ 18.2 µg/mL) |
| FC(F)(F)c1cccc(CNc2nc(NC3CCN(Cc4ccccc4)CC3)c3nc[nH]c3n2)c1 | Cryptococcus neoformans | RNA-seq, refers to: INP52 (CNAG_01532) |  | 48 µg/mL, 3 h | baseline: untreated | mRNA fold change | 1.29 |
| C[N+]1=C2C(c3ccc(Cl)cc3)=[N+]([O-])c3ccccc3N2CCC1 | Fusobacterium nucleatum | microbial growth |  |  |  | MIC50 | 4 µg/mL |
| CCCCCC[C@H]1C(=O)O[C@H](C)[C@H](NC(=O)c2cccc(NC=O)c2O)C(=O)O[C@@H](C)[C@@H]1OC(=O)CC(C)C | Bovine alphaherpesvirus 1 | viral replication | HaCaT | 24 h |  | IC50 | 8.8 nM |
| CN(C(=O)c1ccn2ncc(-c3ccc(C(N)=O)cc3)c2c1)c1ccc(C#N)cn1 | Cryptosporidium parvum |  | UGA1 Nluc, IFN-gamma knockout C57BL/6 mice, faeces | oral, 10 mg/kg daily, 264 h post infection, treatment days 11-17 | higher means more parasites | faecal Nluc luminescence | 21200 a.u. and 144000 a.u. and 17400 a.u. and 5910 a.u. |
| C[N+]1=C2C(c3ccccc3)=[N+]([O-])c3ccccc3N2CCC1 | Fusobacterium nucleatum |  |  |  |  | MIC90 | 4 µg/mL |
| Fc1cccc(COc2ccc(Nc3ncnc4ccc(-c5ccc(N6CCOCC6)cc5)cc34)cc2Cl)c1 | Plasmodium falciparum | parasite growth, SYBR Green | D6 | blood stage |  | EC50 | 270 nM |
| CC(C)C[C@H](NC(=O)[C@H](CC(C)C)NC(=O)[C@H](CCCCN)NC(=O)[C@H](Cc1ccccc1)NC(=O)[C@@H](NC(=O)[C@H](CCCNC(=N)N)NC(=O)[C@@H](N)CCCCN)C(C)C)C(=O)N[C@@H](CCCCN)C(=O)N[C@@H](CCCNC(=N)N)C(=O)N[C@@H](Cc1ccc(O)cc1)C(=O)N[C@@H](Cc1c[nH]c2ccccc12)C(=O)N[C@@H](CCCNC(=N)N)C(=O)N[C@@H](CCC(N)=O)C(=O)N[C@@H](CC(C)C)C(=O)N[C@@H](CCCCN)C(=O)N[C@@H](CCCCN)C(=O)N1CCC[C@H]1C(=O)N[C@H](C(=O)N[C@@H](CCCNC(=N)N)C(=O)NCCOCCOCC(=O)O)C(C)C | Pseudomonas aeruginosa and Staphylococcus aureus | confocal microscopy | mixed biofilm | 10 µM, 6 h, biofilm, pre-formed, 24 h |  | eDNA content reduction | 95.2% |
| CCOC(=O)C1(Cc2ccc(C)cc2)Oc2cc(F)ccc2N(Cc2ccc(C)cc2)C1=O (centres unmarked) | Arabidopsis thaliana | stem length, petri dish germination | Col-0, 1/2 MS medium | 50 µg/mL, 7 days, 22 °C, dark |  | inhibition | 38.1% |
| CCCCCCCC(=O)NCCCC[C@H](NC(=O)CCCCCCC)C(=O)N[C@@H](CCCCNC(=O)CCCCCCC)C(=O)NCC(=O)NCC(=O)NCC(=O)N[C@@H](CS)C(=O)N[C@@H](CCCNC(=N)N)C(=O)N[C@@H](CCCCN)C(=O)N1CCC[C@H]1C(=O)N[C@@H](CS)C(=O)N[C@@H](CCCNC(=N)N)C(=O)N[C@@H](CCCCN)C(=O)N1CCC[C@H]1C(=O)N[C@@H](CS)C(=O)N[C@@H](CCCNC(=N)N)C(=O)N[C@@H](CCCCN)C(=O)N1CCC[C@H]1C(=O)N[C@@H](CS)C(=O)N[C@@H](CCCNC(=N)N)C(=O)N[C@@H](CCCCN)C(=O)N1CCC[C@H]1C(N)=O | Candida albicans | broth microdilution | SP 3876, RPMI-1640 | 48 h, 30 °C |  | MIC | 32 µM (≈ 88.4 µg/mL) |
| CCOC(=O)C1(Cc2ccccc2)Oc2cc(C)ccc2N(Cc2ccccc2)C1=O (centres unmarked) | Arabidopsis thaliana | root length, petri dish germination | Col-0, 1/2 MS medium | 200 µg/mL, 7 days, 22 °C, dark |  | inhibition | 100% |

| Structure (SMILES) | target or system | assay | system | setting | scale | measurement | result |
| --- | --- | --- | --- | --- | --- | --- | --- |
| OB(O)c1ccc(C(F)(F)F)s1 | Staphylococcus aureus | crystal violet | USA300 wild type | 10 µM | baseline: wild type untreated | biofilm formation | 39.4% and 34% and 35% |
| Clc1cc(Nc2ncnc3ccc(-c4cccc(N5CCOCC5)c4)cc23)ccc1OCc1ccccc1 | Plasmodium falciparum | parasite growth, SYBR Green | D6 | blood stage |  | EC50 | 790 nM |
| CCOC(=O)C1(Cc2cc(F)c(F)c(F)c2)Oc2cc(F)ccc2N(Cc2cc(F)c(F)c(F)c2)C1=O (centres unmarked) | Arabidopsis thaliana | root length, petri dish germination | Col-0, 1/2 MS medium | 200 µg/mL, 7 days, 22 °C, dark |  | inhibition | 45.5% |
| NCCCO.O=C(O)C(Cl)Cl | Xanthium sibiricum |  |  | 15 mg/mL, 21 days, post-emergence, greenhouse |  | herbicidal inhibition | 64% |
| C[C@H](NC(=O)Cc1cc(F)cc(F)c1)C(=O)N[C@@H]1C(=O)N(C)c2ccccc2-c2ccccc21 | dengue virus 2 | viral replication | Huh-7.5.1 overexpressing SPP |  | baseline: SPP over control | EC50 fold increase | > 10 fold |
| Cc1cc(-c2ccc3ncnc(Nc4ccc(OCc5cccc(F)c5)c(Cl)c4)c3c2)cnc1N1CCOCC1 | Plasmodium falciparum | parasite growth, SYBR Green fluorescence | C235 (TM91C235), drug-resistant |  |  | EC50 | 360 nM |
| CCOC(=O)C1(Cc2ccc(C#N)cc2F)Oc2cc(F)ccc2N(Cc2ccc(C#N)cc2F)C1=O (centres unmarked) | Arabidopsis thaliana | stem length, petri dish germination | Col-0, 1/2 MS medium | 200 µg/mL, 7 days, 22 °C, dark |  | inhibition | 42.9% |
| CC(=O)c1c(O)c(C)c(O)c2c1OC1=CC(=O)C(=C(C)NCCCCOC3OC4OC5(C)CCC6C(C)CCC(C3C)C46OO5)C(=O)C12C (mixture of isomers) | Plasmodium berghei |  | ANKA GFP, NMRI mouse | oral, 4 x 100 mg/kg |  | mean survival time | 23.3 days |
| C=CCN1C(=O)C(CC=C)(C(=O)OCC)Oc2cc(F)ccc21 (centres unmarked) | Arabidopsis thaliana |  | Col-0, seed germination, dark | 200 µg/mL, 7 days, 22 °C |  | stem length inhibition | 100% |
| Fc1cccc(COc2ccc(Nc3ncnc4ccc(-c5ccc(N6CCNCC6)cc5)cc34)cc2Cl)c1 | Plasmodium falciparum | parasite growth, SYBR Green fluorescence | W2, drug-resistant |  |  | EC50 | 630 nM |
| O=C1NC2(CC2)COc2ncc(F)cc2[C@H]2COCCN2c2ccn3ncc1c3n2 |  |  | Sprague-Dawley rat, male, thymus | oral, 20 mg/kg/day, 4 weeks |  | organ weight | 0.594 ± 0.099 g |
| CC[C@H](C)[C@H](NC(=O)[C@H](CCCCN)NC(=O)[C@H](CCCCN)NC(=O)[C@H](Cc1ccccc1)NC(=O)[C@H](Cc1ccccc1)NC(=O)[C@H](CCCCN)NC(=O)[C@H](CCCCN)NC(=O)[C@H](Cc1ccccc1)NC(=O)[C@H](CCCNC(=N)N)NC(=O)[C@@H](N)CCCCN)C(=O)N[C@@H](CCCCN)C(=O)N[C@@H](CCCCN)C(=O)N[C@@H](CO)C(=O)N[C@H](C(=O)N[C@@H](CCCCN)C(=O)N[C@@H](CCCCN)C(=O)N[C@@H](CCCNC(=N)N)C(=O)N[C@H](C(=O)N[C@@H](CCCCN)C(=O)N[C@@H](CCCCN)C(=O)N[C@@H](CC(C)C)C(=O)N[C@@H](Cc1ccccc1)C(=O)N[C@@H](CCCCN)C(=O)N[C@@H](CCCCN)C(=O)N1CCC[C@H]1C(=O)N[C@@H](CCCNC(=N)N)C(=O)N[C@H](C(=O)N[C@H](C(=O)N1CCC[C@H]1C(=O)N[C@H](C(=O)N[C@@H](CO)C(=O)N[C@H](C(=O)N1CCC[C@H]1C(=O)N[C@@H](Cc1ccccc1)C(=O)O)[C@@H](C)CC)[C@@H](C)CC)[C@@H](C)CC)C(C)C)C(C)C)C(C)C | Klebsiella pneumoniae |  | K1 clinical isolate | 20 h |  | MBC | 8 µg/mL (≈ 1.9 µM) |
| Fc1cccc(COc2ccc(Nc3ncnc4ccc(-c5cccc(N6CCCCC6)c5)cc34)cc2Cl)c1 | Plasmodium falciparum | parasite growth, SYBR Green | D6 | blood stage |  | EC50 | 640 nM |
| C#CCN1C(=O)C(CC#C)(C(=O)OCC)Oc2ccccc21 (centres unmarked) | Arabidopsis thaliana |  | Col-0, seed germination, dark | 200 µg/mL, 7 days, 22 °C |  | root length inhibition | 100% |
| O=S(=O)(c1cccc(-c2ccc3ncnc(Nc4ccc(OCc5cccc(F)c5)c(Cl)c4)c3c2)c1)N1CCOCC1 | Plasmodium falciparum | parasite growth, SYBR Green fluorescence | W2, drug-resistant |  |  | EC50 | 400 nM |
| CN(C)S(=O)(=O)c1ccc(S(=O)(=O)N2CCC(n3c(=O)[nH]c4ccccc43)CC2)cc1 | Klebsiella pneumoniae |  | ATCC 700603 wild type, mouse lung infection, lung | intraperitoneal, 6 mg/kg, 24 h |  | bacterial load reduction | 93% |
